Published values of several laboratories.
Lines come from different studies, so protocols differ. “And” joins repeats or separate records; there may be more than shown. Numbers after ± are the reported error.

CC1(C)CC[C@]2(NC(=O)C(C)(F)F)CC[C@]3(C)[C@H](C(=O)C=C4[C@@]5(C)C=C(C#N)C(=O)C(C)(C)[C@@H]5CC[C@]43C)[C@@H]2C1
trough concentration (human, plasma; oral, 150 mg once daily, day 17 predose, median): 35.7 ng/mL

CC(=O)N(C)C1CCN(c2cc(F)cc(NC(=O)c3cc4c(F)ccc(C)c4[nH]3)c2)C1 (centres unmarked)
plasma concentration (CD1 mouse, plasma; oral, 50 mg/kg, 1 h): 37.6 ng/mL

O=C(O)CCC(=O)O.[2H]C([2H])([2H])Oc1cc(C)c2[nH]ccc2c1CN1CC[C@@H](C2CC2)C[C@H]1c1ccc(C(=O)O)cc1
subjects with elevated ALT TEAE (multiple ascending dose; healthy Chinese subjects; 300 mg once daily): 0%

CNCc1ccc(-c2[nH]c3cc(F)cc4c3c2CCNC4=O)cc1
incidence of AST/ALT increase (human patients; oral, 40 mg once daily, grade 500 or higher): 7.7%

CNC(=O)c1ccc(-c2cnc3ncc(Cc4ccc5ncccc5c4)n3n2)cc1F
treatment-related diarrhoea incidence (healthy human subjects; oral, dose not given, all grades, together with: itraconazole; reference: subjects): 11.1%

Cn1cc(Nc2nccc(-c3ccc4c(c3)CN(C3COC3)CC[C@H]4NC(=O)c3cn(C(C)(C)C)nn3)n2)cn1
lymphocyte count change (human, whole blood; 50 mg twice daily, day 7; reference: pre-dose baseline): 28.3%

COc1cc2c3c(n(CCCN4CCOCC4)c(=O)c2cc1OC)-c1cc2c(cc1C3=O)OCO2
Vz (beagle dog, male, plasma; intravenous infusion, 50 mg/m^2, 1 h infusion, vehicle 2): 388 ± 25 L/m²

O=C(N[C@H](Cc1c[nH]c2ccccc12)C(=O)Nc1ccncc1)c1ccc(N2CCN(c3ccc(F)cc3F)CC2)cc1F
concentration (Swiss Webster mouse, female, lung; oral, 50 mg/kg, 8 h, 20% HPβCD vehicle): 15.8 µM

C[Si](C)(C)O[Si](C)(C)C
change in log KOW (concentration not given, temperature rise 30 °C): 0.35 log units

CN(C(=O)n1cnc(-c2cccnc2)c1)C1CCCCC1
concentration (Wistar rat, hippocampus; oral, 10 mg/kg of BIA 10-2474, 24 h, single dose): 9.7 ± 0.1 ng/g

CCCOc1ccc([C@H]2CNC(=O)N2c2ccc3[nH]cnc3c2)cc1
AUC(0-12h) (human volunteers fasted, plasma; oral tablet, 200 mg single dose, crossover, geometric mean): 2240 ng·h/mL

CCn1cc(C(=O)N2CCOCC2)c(=O)c2cc(NC3Cc4ccccc4C3)cnc21
half-life (human, fasted; oral tablet, 300 mg single dose, arithmetic mean): 4.1 h

COc1ccc2c(=O)n(C)c(-c3ccccc3)nc2c1
tissue/plasma ratio (Sprague-Dawley rat, male, stomach; oral, 30 mg/kg, 4 h; reference: stomach over plasma): 20.2

Cn1cnc2c(F)c(Nc3ccc(Br)cc3Cl)c(C(=O)NOCCO)cc21
central volume of distribution (human, plasma; oral, dose not given, sequential zero-first-order absorption): 8.93 L

Cc1ccc(OC2CCN(c3c(C#N)cnc4ccc(F)cc34)CC2)cn1
brain to plasma ratio (Sprague-Dawley rat, brain and plasma; intravenous, 0.2 mg/kg, cassette, 0.25 h): 5.25

CC[C@@H]([C@H](C)O)n1ncn(-c2ccc(N3CCN(c4ccc(OC[C@@H]5CO[C@@](Cn6cncn6)(c6ccc(F)cc6F)C5)cc4)CC3)cc2)c1=O
t1/2 (Sprague-Dawley rats, plasma; oral, 40 mg/kg, incomplete elimination, together with: zanubrutinib 16 mg/kg): 11.4 ± 6.51 h

Cc1nc(-c2ccc(OCC(C)C)c(C#N)c2)sc1C(=O)O
body weight (KM mouse, chronic hyperuricaemia model; dose not given, day 13): 28.8 g and 31.2 g and 31.4 g and 34.8 g and 37.6 g and 34.2 g

NC(N)=NCCC[C@@H](N)C(=O)N[C@@H](CCCN=C(N)N)C(=O)N1CCC[C@H]1C(=O)N1C[C@H](O)C[C@H]1C(=O)NCC(=O)N[C@@H](Cc1cccs1)C(=O)N[C@@H](CO)C(=O)N1Cc2ccccc2C[C@@H]1C(=O)N1[C@H](C(=O)N[C@@H](CCCN=C(N)N)C(=O)O)C[C@@H]2CCCC[C@@H]21
central volume (Vc/F) (popPK full model estimate; human; subcutaneous, dose not given): 20.7 L

CCCCCCOC(=O)NC(=N)c1ccc(NCc2nc3cc(C(=O)N(CCC(=O)OCC)c4ccccn4)ccc3n2C)cc1
participants with TRAEs (human; oral, 75 mg, compound alone): 12.5%

CO[C@H]1C[C@@H]2CC[C@@H](C)[C@@](O)(O2)C(=O)C(=O)N2CCCC[C@H]2C(=O)O[C@H]([C@H](C)C[C@@H]2CC[C@@H](O)[C@H](OC)C2)CC(=O)[C@H](C)/C=C(\C)[C@@H](O)[C@@H](OC)C(=O)[C@H](C)C[C@H](C)/C=C/C=C/C=C/1C
rectal temperature (healthy adult horses; oral, 0.06 mg/kg, 0 h): 36.5 ± 0.6 °C

CNC(=O)c1ccc(-c2cnc3ncc(Cc4ccc5ncccc5c4)n3n2)cc1F
patients with adverse event (item: Ascites; cancer patients; oral, dose not given, dose escalation, grade 3-4): 5%

C=CCN1CC(=O)N2[C@@H](Cc3ccc(O)cc3F)C(=O)N(Cc3cccc(N4CC(N5CCN(CC)CC5)C4)n3)C[C@@H]2N1C(=O)NCc1ccccc1
treatment-related ALT increased (advanced solid tumour patients; oral, 80 mg twice daily, grade ≥3, dose-escalation): 0%

CCc1nc(C(N)=O)c(Nc2ccc(N3CCC(N4CCN(C)CC4)CC3)c(OC)c2)nc1NC1CCOCC1
AUC(0-24) (Japanese patients, plasma; oral, 40 mg, cycle 0 day -2, single dose, median): 492 ng·h/mL

CC(C)(C)c1sc2ncnc(Oc3c(F)cccc3OC(F)(F)F)c2c1-c1ccc(Cl)cc1
clearance (wild-type mice, plasma; intravenous, 1 mg/kg): 6 mL/min/kg

Cl.[2H]C([2H])([2H])CC(=O)c1cnc(NC(=O)C2CC2)cc1Nc1cccc(-c2ncn(C([2H])([2H])[2H])n2)c1OC
CL/F (geometric mean; human; 50 mg single dose, fasted, liquid): 12.1 L/h

CCC[C@H]1CC[C@H](c2ccc(C#N)cc2)CC1
fetal accumulation (Sprague-Dawley rat, female, fetus; 5000 ng/mL in perfusate, 50 (unit not given), high dose, mixture of 21 LCMs): 4.17 ± 2.31 ng/g

N#Cc1ccc2c(c1)[C@H]1CCCN(C(=O)c3ccc4[nH]cnc4c3)[C@H]1C2
androstenedione level (human, male; 10 mg, day 15): 6.3 nmol/L

N#CCc1ccccc1C#Cc1ccc(CCC(=O)O)cc1
change in mitochondrial membrane potential (100 µM, Cerep high-content toxicity): -14%

C1CCCC1.C1CCCC1.[Cl][W][Cl]
oxidation peak potential (cyclic voltammetry; 100 mM Tris buffer; pH 7.4; reference: Ag/AgCl): 635 mV

Brc1cnc(Nc2cccc(CN3CCOCC3)c2)nc1NCCc1c[nH]cn1
effective permeability (PAMPA; PBS; 5 h, pH 7.4): 1.3 ×10⁻⁶ cm/s

Cc1cc([C@H]2C[C@H]3[C@@H](CF)SC(N)=N[C@@]3(c3ccc(F)cc3F)CO2)on1
brain concentration (male 129/SVE wild-type mouse, brain; subcutaneous, 30 mg/kg, 14 h): 0.015 µM

N#Cc1ccc(-c2cnc3ccc(-c4ccc(C(=O)N5CCOCC5)cc4)cn23)cc1
placebo-corrected change from baseline (item: QRS interval; healthy volunteers; oral, 20 mg, fasted, time-averaged): -1 ms

Cc1ccc([C@@H]2O[C@H](CO)[C@@H](O)[C@H](O)[C@H]2O)cc1Cc1ccc(-c2ccc(F)cc2)s1
urinary sodium excretion change (Japanese type 2 diabetes patients; 100 mg, day 15, 24 h urine collection; reference: baseline): 7.47 mEq

CCO[C@H]1CCN(Cc2c(OC)cc(C)c3[nH]ccc23)[C@H](c2ccc(C(=O)O)cc2)C1
incidence of oropharyngeal pain (PNH patients, active haemolysis; oral, 100 mg, 8 weeks, treatment): 0%

CC[C@H](C)CCCCC(=O)N[C@@H](CCN)C(=O)N[C@H](C(=O)N[C@@H](CCN)C(=O)N[C@H]1CCNC(=O)[C@H]([C@@H](C)O)NC(=O)[C@H](CCN)NC(=O)[C@H](CCN)NC(=O)[C@H](CC(C)C)NC(=O)[C@@H](Cc2ccccc2)NC(=O)[C@H](CCN)NC1=O)[C@@H](C)O
urinary excretion (human, mild renal insufficiency, urine; intravenous, 0.75 mg/kg, 0-24 h, arithmetic mean): 1.53%

CC(C)(C(=O)N1CCOc2c(C#N)cncc2C1)C(F)F
subjects with adverse event (item: Vomiting; human; oral, 40 mg, CSF pharmacokinetic cohort): 16.7%

CCOc1c([C@H](C)n2nc(C)c3c(N)ncnc32)cc(Cl)c(F)c1[C@@H]1CNC(=O)C1
share of patients (item: ΔQTcF ≤ 30 ms; previously treated B-cell malignancy; oral, 30 mg once daily, baseline QTcF ≤450 ms): 100%

CN[C@@H](C)C(=O)N[C@H]1CN(S(=O)(=O)c2cccc(S(=O)(=O)N3CC[C@H]4CC[C@@H](C(=O)NC(c5ccccc5)c5ccccc5)N4C(=O)[C@@H](NC(=O)[C@H](C)NC)C3)c2)CC[C@H]2CC[C@@H](C(=O)NC(c3ccccc3)c3ccccc3)N2C1=O
median Tmax (LC-MS/MS, noncompartmental; human, plasma; 30 mg, cycle 1 day 1): 0.52 h

CN1C[C@H](COc2nccc3c(NCc4ccco4)cc(Cl)nc23)OC1=O
RR interval (rabbit NZW female, isolated Langendorff heart; 3 µM, 15 min): 415 ms

O=C(Nc1nc2cccc(-c3ccc(CN4CCS(=O)(=O)CC4)cc3)n2n1)C1CC1
patients with Dizziness (rheumatoid arthritis patients; oral, 100 mg twice daily, 4 weeks, TEAE regardless of relatedness): 0%

COc1c(N2C[C@@H]3CCCN[C@@H]3C2)c(F)cc2c(=O)c(C(=O)O)cn(C3CC3)c12
QTcI change from baseline (healthy volunteers; oral, 400 mg single dose, day 5, 4.00 h): 9.6 ms

CCCCCNC(=O)N1CCC(CN(Cc2ccc(Cl)cc2)Cc2ccc([N+](=O)[O-])s2)C1 (centres unmarked)
mean corpuscular haemoglobin (C57BL/6 mice; 100 mg/kg twice daily, 7 days): 12.7 ± 0.6 pg

CC(=O)N[C@@H](CC(N)=O)C(=O)N[C@@H](CCCNC(=N)N)C(=O)N[C@@H](CC(C)C)C(=O)N[C@H]1CSSC[C@@H](C(=O)N[C@H](C(N)=O)[C@@H](C)O)NC(=O)[C@H](CCCNC(=N)N)NC(=O)[C@H](Cc2c[nH]cn2)NC(=O)[C@H](Cc2cccc3ccccc23)NC(=O)CNC(=O)[C@H](Cc2c[nH]c3ccccc23)NC(=O)[C@H](CC(=O)O)NC(=O)[C@H](CCC(N)=O)NC(=O)[C@H](Cc2c[nH]c3ccccc23)NC(=O)[C@H](C(C)C)NC1=O
retention factor (isocratic RP-HPLC, C18; 32% acetonitrile, phosphate pH 7.4, 1% TFA; 25 °C): 2.689 ± 0.007

Cc1cc(Nc2ccc(S(F)(F)(F)(F)F)cc2)n2nc(C(C)(F)F)nc2n1
adverse event Vomiting (Plasmodium falciparum malaria patients; oral, 400 mg): 0%

CC[C@H](C)[C@H](NC(C)=O)C(=O)N[C@H]1CSSC[C@@H](C(=O)N[C@H](C(N)=O)[C@@H](C)O)NC(=O)[C@H](CCCNC(=N)N)NC(=O)[C@H](Cc2c[nH]cn2)NC(=O)[C@H](C)NC(=O)CNC(=O)[C@H](Cc2c[nH]c3ccccc23)NC(=O)[C@H](CC(=O)O)NC(=O)[C@H](CCC(N)=O)NC(=O)[C@H](Cc2cn(C)c3ccccc23)NC(=O)[C@H](C(C)C)NC1=O
retention factor (isocratic RP-HPLC, C18; 32% acetonitrile, phosphate pH 7.4, 1% TFA; 25 °C): 1.832 ± 0.007

CCCC[C@H]1CC[C@H](c2ccc(C#N)cc2)CC1
fetal accumulation (Sprague-Dawley rat, female, fetus; 1000 ng/mL in perfusate, 50 (unit not given), middle dose, mixture of 21 LCMs): 0.084 ± 0.098 ng/g

CCc1cc(C(=O)NC)c2nccc(N3CCc4c(cc(Cn5ccnc5)cc4-c4cn(C)nc4C(F)(F)F)C3=O)c2c1
brain weight (Sprague Dawley rat; oral, 100 mg/kg twice daily, 7 days): 1.85 ± 0.079 g

O=C(Nc1cnccc1Cl)N1CCN(Cc2ccc3c(c2)OC(F)(F)O3)CC1
AUC(0-24) (healthy young men, plasma; oral, 25 mg once daily, day 1): 1200 ng·h/mL

C[C@@H]1OC(=O)[C@H](Cc2ccccc2)[C@H]1O
share of total radioactive residue (laying hens, female, fat; oral, 10.7 mg/kg dry feed, 7 days): ≤ 28.4 % TRR

COc1cc(Nc2c(C#N)cnc3cc(OCCCN4CCN(C)CC4)c(OC)cc23)c(Cl)cc1Cl
dose-adjusted solubility (FaSSIF; literature solubility over dose): 3.29e-05 mL⁻¹

For quick reference, copied from above:
Cn1cc(Nc2nccc(-c3ccc4c(c3)CN(C3COC3)CC[C@H]4NC(=O)c3cn(C(C)(C)C)nn3)n2)cn1
lymphocyte count change (human, whole blood; 50 mg twice daily, day 7; reference: pre-dose baseline): 28.3%

C[Si](C)(C)O[Si](C)(C)C
change in log KOW (concentration not given, temperature rise 30 °C): 0.35 log units

CCc1nc(C(N)=O)c(Nc2ccc(N3CCC(N4CCN(C)CC4)CC3)c(OC)c2)nc1NC1CCOCC1
AUC(0-24) (Japanese patients, plasma; oral, 40 mg, cycle 0 day -2, single dose, median): 492 ng·h/mL

O=C(O)CCC(=O)O.[2H]C([2H])([2H])Oc1cc(C)c2[nH]ccc2c1CN1CC[C@@H](C2CC2)C[C@H]1c1ccc(C(=O)O)cc1
subjects with elevated ALT TEAE (multiple ascending dose; healthy Chinese subjects; 300 mg once daily): 0%

COc1cc(Nc2c(C#N)cnc3cc(OCCCN4CCN(C)CC4)c(OC)cc23)c(Cl)cc1Cl
dose-adjusted solubility (FaSSIF; literature solubility over dose): 3.29e-05 mL⁻¹

Brc1cnc(Nc2cccc(CN3CCOCC3)c2)nc1NCCc1c[nH]cn1
effective permeability (PAMPA; PBS; 5 h, pH 7.4): 1.3 ×10⁻⁶ cm/s

CCCCCCOC(=O)NC(=N)c1ccc(NCc2nc3cc(C(=O)N(CCC(=O)OCC)c4ccccn4)ccc3n2C)cc1
participants with TRAEs (human; oral, 75 mg, compound alone): 12.5%

Cc1ccc(OC2CCN(c3c(C#N)cnc4ccc(F)cc34)CC2)cn1
brain to plasma ratio (Sprague-Dawley rat, brain and plasma; intravenous, 0.2 mg/kg, cassette, 0.25 h): 5.25
